Experimental data from different studies.
Each line is one published result; not all experiments were run side by side. “And” joins repeats or separate records; there may be more than shown. ± marks the error that the study gave.

SMILES = CSCC[C@H](NC(=O)[C@@H](NC(=O)[C@H](CC(C)C)NC(=O)[C@@H](NC(=O)[C@H](Cc1c[nH]cn1)NC(=O)CCCCCNC(=O)[C@H](CCCNC(=N)N)NC(=O)[C@H](CCCNC(=N)N)NC(=O)[C@H](CCCNC(=N)N)NC(=O)[C@H](CCC(N)=O)NC(=O)[C@H](CCCNC(=N)N)NC(=O)[C@H](CCCNC(=N)N)NC(=O)[C@H](CCCCN)NC(=O)[C@H](CCCCN)NC(=O)[C@H](CCCNC(=N)N)NC(=O)CNC(=O)[C@@H](N)Cc1ccc(O)cc1)C(C)C)C(C)C)C(=O)N[C@@H](CS)C(=O)N[C@@H](C)C(=O)N[C@H](C(N)=O)[C@@H](C)O; system = C57BL/6J mice; conditions = Alzet osmotic pump, 3 mg/kg, 8 weeks; quantity = hematocrit; value = 41.7% and 37.9% and 26.8%
SMILES = CC[C@H](C)[C@H](NC(=O)[C@H](CCCCN)NC(=O)CNC(=O)[C@H](CC(C)C)NC(=O)[C@H](Cc1ccccc1)NC(=O)[C@H](CCCCN)NC(=O)[C@H](CO)NC(=O)[C@H](Cc1ccccc1)NC(=O)[C@H](Cc1c[nH]c2ccccc12)NC(=O)[C@H](CCC(N)=O)NC(=O)[C@@H](NC(=O)[C@H](Cc1ccccc1)NC(=O)CCCCCNC(=O)CN1CCN(CC(=O)O)CCN(CC(=O)O)CCN(CC(=O)O)CC1)C(C)C)C(=O)N[C@@H](CCC(=O)O)C(=O)N1CCC[C@H]1C(=O)N[C@@H](CC(=O)O)C(=O)N[C@H](C(=O)N[C@@H](CO)C(=O)N[C@@H](CCC(N)=O)C(=O)N[C@H](C(=O)N[C@@H](CCC(N)=O)C(=O)N[C@@H](CC(=O)O)C(=O)N1CCC[C@H]1C(=O)N[C@@H](CC(N)=O)C(=O)N[C@@H](CC(=O)O)C(=O)N[C@@H](CCC(N)=O)C(=O)N[C@@H](Cc1ccc(O)cc1)C(=O)N[C@@H](CCC(=O)O)C(=O)N1CCC[C@H]1C(=O)N[C@@H](Cc1ccccc1)C(=O)O)C(C)C)C(C)C [copper-64 labelled]; test = dynamic PET; system = mouse, CT26 tumour, untreated, tumour; conditions = intravenous, 100 µCi/mouse, 1860 s; quantity = SUVmean; value = 0.84 SUV
SMILES = O=C1NC2(CC2)COc2ncc(F)cc2[C@H]2COCCN2c2ccn3ncc1c3n2; system = Sprague-Dawley rat, female, serum; conditions = oral, 10 mg/kg/day, end of recovery, 4-week subacute toxicity; quantity = serum LDH activity; value = 591 ± 213 U/L
SMILES = CC(C)C[C@H](NC(=O)[C@H](Cc1ccc(O)cc1)NC(=O)[C@H](C)NC(=O)[C@@H](NC(=O)[C@H](CC(C)C)NC(=O)[C@H](C)NC(=O)[C@H](C)NC(=O)[C@H](CCCCN)NC(=O)CNC(=O)[C@@H](NC(=O)[C@H](Cc1c[nH]cn1)NC(=O)[C@H](CCCCN)NC(=O)CNC(=O)[C@@H](NC(=O)[C@H](Cc1c[nH]cn1)NC(=O)[C@@H](NC(=O)[C@H](C)NC(=O)[C@H](CCCCN)NC(=O)[C@H](CCCCN)NC(=O)[C@H](Cc1ccccc1)NC(=O)[C@H](Cc1c[nH]c2ccccc12)NC(=O)[C@H](CCCCN)NC(=O)CNC(=O)[C@H](Cc1c[nH]c2ccccc12)NC(=O)[C@@H](N)CCCNC(=N)N)[C@@H](C)O)C(C)C)C(C)C)[C@@H](C)O)C(N)=O; system = zebrafish embryos 28 hpf, E3 medium; conditions = 1 h; quantity = acute toxic concentration; value = 5 µM
SMILES = CCCCCCCCCCCCCCCC(=O)N[C@@H](CCC(=O)NCCOCCOCCC(=O)NCCOCCOCCC(=O)NCCCC[C@H](NC(=O)[C@H](CC(=O)O)NC(=O)[C@H](CC(C)C)NC(=O)[C@H](Cc1ccc(O)cc1)NC(=O)[C@H](CCCCN)NC(=O)[C@H](CO)NC(=O)[C@H](Cc1ccc(O)cc1)NC(=O)[C@H](CC(=O)O)NC(=O)[C@H](CO)NC(=O)[C@@H](NC(=O)[C@H](Cc1ccccc1)NC(=O)[C@@H](NC(=O)CNC(=O)[C@H](CCC(N)=O)NC(=O)[C@@H](CO)NC(=O)[C@@H](N)Cc1c[nH]cn1)[C@@H](C)O)[C@@H](C)O)C(=O)N[C@@H](CCCNC(=N)N)C(=O)N[C@@H](CCCNC(=N)N)C(=O)N[C@@H](C)C(=O)N[C@@H](CCC(N)=O)C(=O)N[C@@H](CC(=O)O)C(=O)N[C@@H](Cc1ccccc1)C(=O)N[C@H](C(=O)N[C@@H](CCC(N)=O)C(=O)N[C@@H](Cc1c[nH]c2ccccc12)C(=O)N[C@@H](CC(C)C)C(=O)N[C@@H](CC(C)C)C(=O)N[C@@H](CC(N)=O)C(=O)N[C@H](C(=O)NCC(=O)NCC(=O)N1CCC[C@H]1C(=O)N[C@@H](CO)C(=O)N[C@@H](CO)C(=O)NCC(=O)N[C@@H](C)C(=O)N1CCC[C@H]1C(=O)N1CCC[C@H]1C(=O)N1CCC[C@H]1C(=O)N[C@@H](CO)C(N)=O)[C@@H](C)O)C(C)C)C(=O)O; test = measured: AST; system = Sprague-Dawley rat, male; conditions = subcutaneous, 20 µg/kg once daily, 14 days; quantity = serum enzyme activity; value = 111 ± 22.9 U/L
SMILES = CC[C@H](C)[C@@H]1NC(=O)[C@H](Cc2ccc(O)cc2)NC(=O)CCCSC[C@@H](C(=O)N(CC(=O)N[C@@H](CC(C)C)C(=O)NCC(N)=O)Cc2ccc(F)cc2)NC(=O)[C@H](CC(N)=O)NC(=O)[C@H](CCC(N)=O)NC1=O; system = human; conditions = intranasal, 200 µg repeated doses; quantity = deaths; value = 0%
SMILES = CSCC[C@H](NC(=O)CNC(=O)[C@H](CCCCN)NC(=O)[C@H](CC(C)C)NC(=O)[C@@H]1CCCN1C(=O)[C@H](CO)NC(=O)[C@H](Cc1c[nH]cn1)NC(=O)[C@H](Cc1c[nH]c2ccccc12)NC(=O)[C@H](CCCNC(=N)N)NC(=O)[C@H](CC(C)C)NC(=O)[C@H](CCCNC(=N)N)NC(=O)[C@H](Cc1c[nH]c2ccccc12)NC(=O)[C@H](CS)NC(=O)CCCCCNC(=O)CN1CCN(CC(=O)O)CCN(CC(=O)O)CCN(CC(=O)O)CC1)C(=O)O [copper-64 labelled]; test = ex vivo biodistribution; system = C57BL/6J mice bearing B16-F10 tumours, thymus; conditions = intravenous, 1.85 MBq, 0.5 h; quantity = tissue uptake; value = 2.46 %ID/g
SMILES = CCCCCCCCCCCCCCCC(=O)NCCCC[C@H](NC(=O)[C@H](CCC(=O)O)NC(=O)[C@H](Cc1ccc(O)cc1)NC(=O)[C@H](CCC(=O)O)NC(=O)COCC(=O)NCCCOCCOCCOCCCNC(=O)[C@H](Cc1ccccc1)NC(=O)[C@H](CC(N)=O)NC(=O)[C@H](Cc1c[nH]cn1)NC(=O)[C@@H](NC(=O)[C@H](CC(=O)O)NC(=O)[C@H](CCC(N)=O)NC(=O)[C@H](CC(C)C)NC(=O)[C@H](CCCCN)NC(=O)[C@H](CCCCN)NC(=O)[C@H](CCCNC(=N)N)NC(=O)[C@H](CC(C)C)NC(=O)[C@H](Cc1c[nH]c2ccccc12)NC(=O)[C@H](CCC(=O)O)NC(=O)[C@@H](NC(=O)[C@H](CCCNC(=N)N)NC(=O)[C@H](CCC(=O)O)NC(=O)[C@H](CCSC)NC(=O)[C@H](CO)NC(=O)[C@H](CC(N)=O)NC(=O)[C@H](CC(C)C)NC(=O)[C@H](Cc1c[nH]cn1)NC(=O)[C@H](CCCCN)NC(=O)CNC(=O)[C@H](CC(C)C)NC(=O)[C@H](CC(N)=O)NC(=O)[C@H](Cc1c[nH]cn1)NC(=O)[C@H](CCSC)NC(=O)[C@H](CC(C)C)NC(=O)[C@H](CCC(N)=O)NC(=O)[C@@H](NC(=O)[C@H](CCC(=O)O)NC(=O)[C@H](CO)NC(=O)[C@@H](NC(=O)[C@@H](N)CO)C(C)C)[C@@H](C)CC)C(C)C)C(C)C)C(=O)N[C@@H](CCC(=O)O)C(=O)N[C@@H](Cc1ccc(O)cc1)C(=O)N[C@@H](CCC(=O)O)C(N)=O; test = ELISA; system = female CD-1 mice, blood plasma; conditions = subcutaneous, 10 nmol/kg, 24 h; quantity = plasma concentration; value = 0.607 nM
SMILES = CC(CCC(=O)NCC(=O)O)C1CCC2C3CCC4CC(OC5OC(C(=O)O)C(O)C(O)C5O)CCC4(C)C3CC(O)C12C (stereo not shown); test = measured: glucuronide to parent ratio; system = men, plasma; conditions = dose not given; scale = relative to: C/C over T/T; quantity = ratio of metabolic ratios; value = 4.68
SMILES = O=C(c1cc(Cc2n[nH]c(=O)c3ccccc23)ccc1F)N1CC(CNC2CC2)C1; system = male Wistar Han rat; conditions = oral, 60 mg/kg, day 1; quantity = Cmax; value = 6950 ng/mL
SMILES = CCCC[C@H]1C(=O)N(C)[C@@H](CCCC)C(=O)N[C@@H](CCCCNC(=S)Nc2ccc(CN3CCN(CC(=O)O)CCN(CC(=O)O)CC3)cc2)C(=O)N[C@H](C(=O)NCC(N)=O)CSCC(=O)N[C@@H](Cc2ccc(O)cc2)C(=O)N(C)[C@@H](C)C(=O)N[C@@H](CC(N)=O)C(=O)N2CCC[C@H]2C(=O)N[C@@H](Cc2cnc[nH]2)C(=O)N[C@@H](CCC(=O)O)C(=O)N2C[C@H](O)C[C@H]2C(=O)N[C@@H](Cc2c[nH]c3ccccc23)C(=O)N[C@@H](CO)C(=O)N[C@@H](Cc2cn(CC(=O)O)c3ccccc23)C(=O)N1C [fluorine-18 labelled]; system = huCD34 mice with A-375 melanoma, tumour; conditions = dose not given, 7 days, with: ipilimumab 4 mg/kg and pembrolizumab 4 mg/kg; scale = relative to: pretreatment baseline; quantity = change in tumour uptake; value = 2.9 ± 1.89 %ID/cc
SMILES = CC(C)[C@@H]1NC(=O)CNC(=O)[C@H](CC(N)=O)NC(=O)[C@H](CCCNC(=N)N)NC(=O)[C@H](Cc2ccc(O)cc2)NC(=O)[C@H](C(C)C)NC(=O)[C@@H](NC(=O)[C@@H](NC(=O)[C@H](CC(N)=O)NC(=O)[C@H](Cc2c[nH]c3ccccc23)NC(=O)[C@H](C)NC(=O)[C@H](Cc2ccccc2)NC(=O)CNC(=O)[C@H](CCCCN)NC(=O)[C@H](Cc2ccccc2)NC(=O)[C@H](Cc2ccccc2)NC(=O)[C@H](CCCCN)NC(=O)OCC2c3ccccc3-c3ccccc32)C(C)C)CSSC[C@@H](C(=O)N[C@@H](Cc2c[nH]cn2)C(=O)N[C@@H](CCCNC(=N)N)C(=O)N[C@@H](CCCNC(=N)N)C(=O)N[C@@H](C)C(=O)N[C@@H](CC(N)=O)C(N)=O)NC(=O)[C@H](C(C)C)NC(=O)[C@H](CCCNC(=N)N)NC1=O; system = ICR mice, blood; conditions = intraperitoneal, 10 mg/kg, day 5; quantity = mean corpuscular volume; value = 40.7 ± 0.49 fL
SMILES = COc1ccc(CNc2ccc3c(c2)S(=O)(=O)C=C3)cc1; system = male C57BL/6 mice, blood; conditions = intraperitoneal, 5 mg/kg, day 8, group average; quantity = mean corpuscular haemoglobin; value = 15.1 pg
